# Measured values from different studies.
# Parts stem from different laboratories: compare values within a part only. Changes are numbered by the printed parent chain.

# Study 1
# Target: RING finger protein unkempt homolog, zinc fingers 1-6, SBP tag (UNK, Homo sapiens, UniProt Q9C0B0, residues 30-357)
# UniProt Q9C0B0, sequence (30-357, looked up): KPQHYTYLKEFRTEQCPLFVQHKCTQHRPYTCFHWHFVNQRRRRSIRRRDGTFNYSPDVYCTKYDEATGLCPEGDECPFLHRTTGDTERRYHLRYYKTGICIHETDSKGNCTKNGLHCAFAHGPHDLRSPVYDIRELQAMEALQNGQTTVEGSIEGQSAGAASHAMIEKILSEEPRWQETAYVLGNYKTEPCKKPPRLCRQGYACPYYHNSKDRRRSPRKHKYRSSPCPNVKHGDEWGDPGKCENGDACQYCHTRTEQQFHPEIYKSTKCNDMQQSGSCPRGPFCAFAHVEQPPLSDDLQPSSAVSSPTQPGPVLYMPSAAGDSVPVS
# Method: RNA Bind-n-Seq
# Molecule type: RNA
# Sample: in vitro
# Concentration: 100 nM
# Setting: RNA with constant flanks, vertebrate orthologous sites, ends assumed
# Reference: input RNA pool
# Direction: higher = stronger binding
# All sequences stand within: GGGAGUUCUACAGUCCGACGAUC … CAACAGAGGAUUGAGCAUCA
Oligonucleotide,bound/input enrichment [ratio]
GGGCAGCCGGUGGGGGAAUCCCAUGCUCUGGCCUUGCCUCCCCUCCCUGCCACCCGCUCCUAGUUAUUUUUUUUUUAACCACCAUGUGAUUAAGGUCGGCACUGCCUCCCCCGACCCACU,2.26
AUUUAGAAUGUUAAUAAAUUGCUCUGAGAUUCCUCAAGUCCAUUUUGUAAGAUCAGACCAUAGGUGGGUGUUGUUUCUUUUAAGUUUGUGUGCUGUGUCCAGUGUUACAUUUUUAAAAGU,3.2
AUCCCUCAGUGACAGUAUGCCAUCUGUAGCAGAUUCCCACUCUAGUCAUUUUUCUGAAUUUAGUUGUUCUGAUCUAGAAAGCAUGAAAACUUCUUGCAGCCAUGGUUCCAGUGAUUAUCA,1.98
UUCAGGCACAACUGACUGGUUCACAGCAUUCCUUACACAGUUAUUUAUCAAGUACAAGUGGAGUUAAUUUUCAGGAUACAUCCAGGCAGUCAGCACUGUCCUGCAGUCCAGUUGGAGAUG,0.357
CCACUUUUUACCUUCUUAUCACCUCAGUGAGGUAAAGUCUCCUUGGCAUUUGGUUGGUACUAGAGCCAGUGAUUUCUAAGAUUUUUUUACAUUUCAUUUCUUUCACACUCAGUCAUCUUC,0.424
GGGAGAUACUGAAUAUUAUUAACAUUAUCGUCUUCCUGUACUUUUUUGUGCCCUAAUACCUACUCUACUUUUUAAAUUUUCAGGCUUCAAUGAUCUUUGAAUUGAUCCAGUUUUCACAUU,0.63

# Study 2
# Target: CCNA1, cyclin fold, Cln2 fusion (human)
# Method: yeast growth competition, sequencing
# Sample: yeast
# Setting: weak parent motif
# Reference: not given
# Direction: higher = stronger binding
# Starting sequence: WEE1 docking peptide (human); HKTFRKLRLFDTP
Variant,normalised enrichment score
HKTFRYLRLFDTP [K6Y],0.21
HKTFRKLRLFSTP [D11S],-0.154
WKTFRKLRLFDTP [H1W],0.296
HKTFRKERLFDTP [L7E],0.449
HKTPRKLRLFDTP [F4P],0.54
HKTFRKLRLFDTE [P13E],-0.108
SKTFRKLRLFDTP [H1S],0.856
HKTFRKYRLFDTP [L7Y],0.418
HKTFRKLRLFDFP [T12F],0.222
HKTFRKLRLFDQP [T12Q],-0.224
HKTFRKLRLFDTM [P13M],0.514
HKTFRKLRLFDTT [P13T],0.279
HKTFRHLRLFDTP [K6H],0.158

# Study 3
# Target: Ras GTPase-activating protein-binding protein 1, full length (G3BP1, Homo sapiens, UniProt Q13283)
# UniProt Q13283, sequence (whole entry, looked up): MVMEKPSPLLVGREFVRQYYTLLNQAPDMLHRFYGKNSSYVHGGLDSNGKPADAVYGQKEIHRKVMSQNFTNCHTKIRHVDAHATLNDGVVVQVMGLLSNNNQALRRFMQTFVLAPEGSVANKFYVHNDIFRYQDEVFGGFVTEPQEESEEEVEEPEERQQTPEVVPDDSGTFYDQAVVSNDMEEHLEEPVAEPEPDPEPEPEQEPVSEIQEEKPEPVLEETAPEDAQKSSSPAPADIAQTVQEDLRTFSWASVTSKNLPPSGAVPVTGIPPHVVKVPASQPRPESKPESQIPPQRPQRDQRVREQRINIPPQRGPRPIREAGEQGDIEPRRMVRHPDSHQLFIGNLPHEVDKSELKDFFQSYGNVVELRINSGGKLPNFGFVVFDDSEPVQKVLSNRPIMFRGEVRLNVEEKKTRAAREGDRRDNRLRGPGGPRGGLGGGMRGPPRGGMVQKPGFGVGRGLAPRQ
# Method: RNA Bind-n-Seq
# Molecule type: RNA
# Sample: in vitro
# Concentration: 200 nM
# Setting: whole 134-nt RNA, ends assumed
# With: 150 mM LiCl
# Reference: input library
# Direction: higher = stronger binding
# Each molecule: 7-deaza-guanosine replaces G
# All sequences stand within: GGGAGUUCUACAGUCCGACGAUC … UGGAAUUCUCGGGUGUCAAGG
Oligonucleotide,log2 enrichment
UGGCCCUGGUGGCAUGCGGGGAGGAAGAGGUGGCCUCAUGGAUCGUGGUGGUCCCGGUGGAAUGUUCAGAGGUGGCCGUGGUGGAGGCAG,-0.286
UCAAUGCCGGCUAUGCCCUGGCCCCAGCCACCAGUGCCAACGACAGCGAGCAGCAGAGCCUGUCCAGCGAUGCAGACACCCUGUCCCUCA,-1.19
UUUCUCUCACCAGGUACCAGGUCAUCAGUACACCAUCUGAUAUUUUCAUGGUGAUGGAAUAUGUCUCAGGAGGAGAGCUAUUUGAUUAUA,0.344
AAGUCCUGUGCUACACAUCGUAUGUACCGAAUCGGGUUUGGGUUUUUUUGGGAGGGAAAGUAUUAUGUUACGCCGUUCGGAUCUGCACUU,0.652
GUCCUGUGCUACACAUCGUAUGUACCGAAUCGGGAAAAAAGGAAAAAAGGAAAAAAGGAAAGUAUUAUGUUACGCCGUUCGGAUCUGCAC,-0.527
AUUUCUCAGUUGAAGGAUGCUUACACUCUUGUCCAUCUAGACCUCAAUUACUGUUUUUCAGGAAUGUCUGAUCACAGAUACGGGGAUGGU,-1.65
AGUCCUGUGCUACACAUCGUAUGUACCGAAUCGGAAAAAAAGGAAAAAGGUUUUUGGAAAGUAUUAUGUUACGCCGUUCGGAUCUGCACU,-2.41
UGUGCUACACAUCGUAUGUACCGAAUCGGGGAAAAAAAGGAAAAAAAGGGGAAAAAAAGGGGAAAGUAUUAUGUUACGCCGUUCGGAUCU,0.397
ACCAUGCAGGUGGGCAUCUUUGGGAAGUGGGGCAAGGGGGGGAUAGGGAGGGGGGUAACACUUUGGGAACAGGUGGUCCCAGGUCGAUUC,0.215
UUGAGAAGAAGCAAAAAGAGAUGGAUGAAGCUGCUACGGUGAGAGAAAACCCACUAUCGAUUCCACUCACCACUUACCUCCUUCCCUUAC,-0.82
ACCAUGCAGGUGGGCAUCUUUGGGAAGUGGGGCAAGGGGGGGAUAGGGAGGGGGGUAACACUUUGGGAACAGGUGGUCCCAGGUCGUAUC,0.0848

# Study 4
# Target: Interferon regulatory factor 5, full length, phosphomimetic (IRF5, Homo sapiens, UniProt Q13568-2, residues 1-514, S451D/S453D/S456D/S462D)
# Method: protein-binding microarray
# Molecule type: double-stranded DNA, one strand shown
# Sample: in vitro
# Concentration: 940 nM top
# Setting: 60-bp whole probe
# With: salmon DNA 0.4 mg/ml
# Reference: random background probes
# Direction: higher = stronger binding
# All sequences stand within: GCCTAGCAC … GTCTTGATTCGCTTGACGCTGCTG
Oligonucleotide,fitted relative affinity
TTAGAACTGAGACTGGATCAGTGCTAG,-0.298 z-score
TTAGATTTCGGGACTCGATTAGTGCTA,0.46 z-score
TTAGGTTTCGGTACTGGGTTAGTGCTA,13.2 z-score
TTAGGTCTCGGTATCGGTTCGTGCTAG,6.51 z-score
TTAGATTACGGGTATCGATTAGTGCTA,2.56 z-score
TTAGGTTCCTGTTTCGGTTAGTGCTAG,5.26 z-score
TTGTTTCCATTTTCTGAATGCGTGCTA,1.54 z-score
TTAGGTATCGGACTGGTTTAGTGCTAG,3.8 z-score
TGAGGTTCCCTTTTCCTTTAGTGCTAG,0.809 z-score
TAAGCAAAAATGATTGGTTGGTGCTAG,-0.45 z-score
TTAGGTCTCGGACTGGGGTAGTGCTAG,0.812 z-score
TTTGGTATCGGGACTGGGTTAGTGCTA,7.34 z-score
GACGATCTCAGACTGGAGCCGTGCTAG,-0.42 z-score
TACGGTATCGGTATCGGGACGTGCTAG,8.36 z-score
CCAGCTCTTTCGTTACTTCCTGTGCTA,2.41 z-score
TTCGGTATCGGGACTGGGTTAGTGCTA,3.97 z-score

# Study 5
# Target: RNA binding protein fox-1 homolog 2, RRM domain, GST-SBP tag (RBFOX2, Homo sapiens, UniProt O43251-10, residues 100-194)
# Method: RNA Bind-n-Seq
# Molecule type: RNA
# Sample: in vitro
# Concentration: 365 nM
# Setting: natural RNA segment, single round, ends assumed
# Reference: no-protein control
# Direction: higher = stronger binding
# All sequences stand within: GGGAGUUCUACAGUCCGACGAUC … UGGAAUUCUCGGGUGCCAA
# Target sequence (chain): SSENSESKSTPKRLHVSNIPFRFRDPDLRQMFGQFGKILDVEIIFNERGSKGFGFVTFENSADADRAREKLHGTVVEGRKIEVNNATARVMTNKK
Oligonucleotide,RBNS enrichment (R)
GAGAGGGGGAGGCCUGUGUCCUUCCAGCUUCAUUGCACAUGGUCCCCCUCCUGCAACCAGGCUACCUGAAGACCUUUAUGGAGGUGAAAGGGAAACUAAAUUGUUCCCUG,1.07
AAAGCCCCUAUGGCUAUAACUUUAAAUAAACUAAACCAAAAAUGUUAUUGAUGUUUUAUAUAGAGAGUAGGAUCAUUAGUUUUUGUUACUGUAAUGUUUGAUGUCUCAAA,0.608
AACUAAAAUCAAUAUGUUUUAAAAGUCACCAUAUAGCUUCUUACUAGUUAUCUUUUAAAGACUGUGGUGGUCUUAAAAGGGAACAAAAGCUACUACAGACUAAAUUUAUG,0.462
AAAUAUUAAAUGAUUUAGCAGUCUCCACGUGUGUUAAUGUUUCAAACGUGUAUCAUAAUGUGUAUAAUUGUGUAACAAAAUUGUCUACAAUAAAUCUUUUGGUAUUUGUG,0.403
UGUGGCCUGCUGGCUGCAUGCUGUAUCAGCCACAACCUGGCAAGUGGCCUUCUGACAGGUUUCUUUUUAUUAGAACCACAGUUUUGACUUUGUUUUGGUAAGCUGUCCUC,2.18
CACCCCUGCCCAUUUUCUGUCUUUAAUUAACCAAGGUGUUAGGUGUGACUGUCACAACUGUUAUGUUUUCCAGUAAACUAGAAGUACGAUAUUUGAUAAUUAUAUUUGUA,0.84
GUAAUAUCAGUGUAAGUAAAAUCCUGAUUCCAUAAACCUGGUUGUAUUUAAAACAAAAAACAAAACUACAAUGAAACUUGGGAGUCCUUUUCAUGUAGAGGAAGGUUAUC,0.555
GGCCAAAGGUGCAGCAGUGCUUAUCACAUCCACAUACUAAGAGAUUGGUCUUAGUGCGUUUGUGCCCUUUGUUCUGGUCUGACUCUUGCGAAUCUCAGAGCAGGAGAAGU,0.287
AAAUCCUCCUGCCCAUACCGUGCACCCUUAGAAGCCUGCGUGUGCAUAGAGCGCCCCCUACUUCCCAGUUAACUCCCAGUUCUUCUCCCUGAGCUUGGUAUUUGUCAUGU,1.29
UUCGCCCUGCCCUGCCCACCGGGGCUGAAAAUUCCUGAGGAAGAUGGUUACACCAUCACCCCCAACACCCUCAAGACCCUGGUGCUGGUAGGCUGUUUCACCGUCUUCUG,0.265
AAUGUAAAGACUCUGCCUUUGCGAAGCCAGCUGCAGUGCUGUAGGCCCCCAAGUUCCCUAGCAAGCUGCCAAACCAAAACGGGCACCACCAGCUCAGCUGAGGCAUCCCA,0.388
UUCCCUGGGGACCAGUGUCAGUGGCAGAGCCAGGGACACCCAUGCACAAGGAGGCAUGCUUGCCCUUCUCCUUGGGAUGGCAGCUGGUGAGCUGAGGAGGCUGGCCUAGA,5.46

# Repeated from above (study 3):
Oligonucleotide,log2 enrichment
AUUUCUCAGUUGAAGGAUGCUUACACUCUUGUCCAUCUAGACCUCAAUUACUGUUUUUCAGGAAUGUCUGAUCACAGAUACGGGGAUGGU,-1.65
AGUCCUGUGCUACACAUCGUAUGUACCGAAUCGGAAAAAAAGGAAAAAGGUUUUUGGAAAGUAUUAUGUUACGCCGUUCGGAUCUGCACU,-2.41
UGUGCUACACAUCGUAUGUACCGAAUCGGGGAAAAAAAGGAAAAAAAGGGGAAAAAAAGGGGAAAGUAUUAUGUUACGCCGUUCGGAUCU,0.397
ACCAUGCAGGUGGGCAUCUUUGGGAAGUGGGGCAAGGGGGGGAUAGGGAGGGGGGUAACACUUUGGGAACAGGUGGUCCCAGGUCGAUUC,0.215
